Measured values pooled from the literature.
A part holds a random share of what one study measured. Positions count from the first letter of the parent shown.

Block 1
Target: Protein C-ets-1 (ETS1, Homo sapiens, UniProt P14921, residues 1-441, full length assumed)
Technique: protein-binding microarray
Molecule type: double-stranded DNA, one strand shown
Matrix: in vitro
Tested at: not given
Notes: k-mer, scored over probes, only values ≥0.25
Reading: higher = stronger binding
Residues (chain): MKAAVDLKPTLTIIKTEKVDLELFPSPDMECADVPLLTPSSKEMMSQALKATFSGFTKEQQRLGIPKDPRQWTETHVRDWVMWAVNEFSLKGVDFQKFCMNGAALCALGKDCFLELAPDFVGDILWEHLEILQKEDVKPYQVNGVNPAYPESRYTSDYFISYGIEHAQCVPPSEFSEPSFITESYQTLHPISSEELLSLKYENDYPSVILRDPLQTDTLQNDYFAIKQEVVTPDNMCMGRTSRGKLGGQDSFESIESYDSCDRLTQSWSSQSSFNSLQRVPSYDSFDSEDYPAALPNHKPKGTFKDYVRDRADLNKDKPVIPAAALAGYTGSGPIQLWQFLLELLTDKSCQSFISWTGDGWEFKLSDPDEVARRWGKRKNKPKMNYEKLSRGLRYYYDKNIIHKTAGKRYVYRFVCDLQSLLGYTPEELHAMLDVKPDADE
The E-score of `GGAAACAC` is reported as 0.391.
For `ATTTCCCG`, the E-score was 0.436.
With `ATACAGGA` the E-score was 0.385.
`GACGGGAA` has an E-score of 0.334.
For `AAATTCCG`, the E-score was 0.264.
With `CCGGAAGA` the E-score was 0.478.
The E-score of `GGTCCGGA` is reported as 0.364.
The E-score of `GGGGGAAA` is reported as 0.358.
`ATCCAGGA` has an E-score of 0.309.
The E-score of `CCCTTTCC` is reported as 0.317.
`ATGTTCCG` gave an E-score of 0.322.
For `CATCCGAA`, the E-score was 0.299.
The E-score of `AACCTTCC` is reported as 0.324.
`CGTTTCCA` has an E-score of 0.256.
For `ACTATCCG`, the E-score was 0.302.
`ACGCGGAT` has an E-score of 0.273.
The E-score of `CCGGCGCC` is reported as 0.257.
`CGGAACAG` has an E-score of 0.366.
With `CTCCGGTA` the E-score was 0.334.
The E-score of `ACCGGAAA` is reported as 0.495.
For `ACCCGGAA`, the E-score was 0.461.
With `CATCCTCC` the E-score was 0.386.
With `CGGCGGAC` the E-score was 0.28.
With `ACCCCCGG` the E-score was 0.258.
For `GATGGGAA`, the E-score was 0.294.

Block 2
Target: RNA binding protein fox-1 homolog 2, RRM domain, GST-SBP tag (RBFOX2, Homo sapiens, UniProt O43251-10, residues 100-194)
Technique: RNA Bind-n-Seq
Molecule type: RNA
Matrix: in vitro
Tested at: 365 nM
Notes: natural RNA segment, single round, ends assumed
Reference: no-protein control
Reading: higher = stronger binding
All sequences stand within: GGGAGUUCUACAGUCCGACGAUC … UGGAAUUCUCGGGUGCCAA
`UUCCCACGCAGUUGAGUGUCAUCACCCAAGUCCCUGUCAUCUAGGAAGGAAGUGGAUGCAGGGUGGAACAAAGAACCUCCGGUCACUGUAGCCCCUCUUCUCUGCUCUGC`: “RBNS enrichment (R)” 0.424.
`CCUGGGUGCAGUAGGCGCUGGGUCCUCCUGACCUCUGUUUCACUGUUUGUGGUAAGGUAGCCACACCUGGAGCUCACGUGUAACCUGGAGCGCUGUGCUACCAGUAGCUU`: “RBNS enrichment (R)” 0.377.
For `AAGCCUUCAUCUUCUUGAGUACCCAAACCAGGCUUCAGGUGUCCUUUGAGGAUAGCCAGGUUUGAAAUUUUUAGUUUCUCAGGAAGAGCUCUUCUAUGUGGCAGGGGCUG`, “RBNS enrichment (R)” read 1.1.
`UCCUCUUGUAAGUGCCCUUCUAAUAAACUUUUCAUGGAAAAGCUCCUGUGCCAGGAGCUCAGUCUGAUUCUUGCUGCUGUCUCUGGGUGGAGAGAAGAUUUAAAAGGGAG`: “RBNS enrichment (R)” 0.547.
For `UUAAAAAUCGUAUGAAAGUCUACAUCAGCUGAAUUGUCCUAGCUUGAUAAGCACUUGGAGGGGGACUUGGAAGGUGAGAAAGAUACUGCAUUUUCUCAUGAGUCUCCAAG`, “RBNS enrichment (R)” read 0.471.
Under “RBNS enrichment (R)”, `UGAGUGAGUGUGCAUGUGUGGGAAUUCAUCAUAACCCUUGAAGCUAGCAAGCGACCGCUGUUGGCCGAGCUUCACUCAUGACUGCAGCGUGCAUGUAUCUCUUCACCAUG` is recorded as 11.3.
`GAGCCAGCCCUCCCUGUCCUCCUCGGAUCACCGAGAGUAGCCGAGAGCCUGCUCCCCCACCCCCUCCCCAGGGGAGAGGGUCUGGAGAAGCAGUGAGCCGCAUCUUCUCC` — result for “RBNS enrichment (R)”: 0.942.
`GGGGGAGCCCGGACACCCAGAGCUCCCCGAGUUGGGGGUGCCCGUCUGGAGCGCCCCCGUCAGCCCCUGGCGGUGGGAGGUGAGAGCGAGUGGUUUAAGUGCCUGAUUAC` — result for “RBNS enrichment (R)”: 0.57.

Block 3
Target: Interferon regulatory factor 7, full length, phosphomimetic (IRF7, Homo sapiens, UniProt Q92985, residues 1-503, S471D/S472D/S475D/S476D/S477D/S483D/S484D/S487D)
Technique: protein-binding microarray
Molecule type: double-stranded DNA, one strand shown
Matrix: in vitro
Tested at: 2200 nM top
Notes: 60-bp whole probe
Added: salmon DNA 0.4 mg/ml
Reference: random background probes
Reading: higher = stronger binding
All sequences stand within: GCCTAGCAC … GTCTTGATTCGCTTGACGCTGCTG
Residues (chain): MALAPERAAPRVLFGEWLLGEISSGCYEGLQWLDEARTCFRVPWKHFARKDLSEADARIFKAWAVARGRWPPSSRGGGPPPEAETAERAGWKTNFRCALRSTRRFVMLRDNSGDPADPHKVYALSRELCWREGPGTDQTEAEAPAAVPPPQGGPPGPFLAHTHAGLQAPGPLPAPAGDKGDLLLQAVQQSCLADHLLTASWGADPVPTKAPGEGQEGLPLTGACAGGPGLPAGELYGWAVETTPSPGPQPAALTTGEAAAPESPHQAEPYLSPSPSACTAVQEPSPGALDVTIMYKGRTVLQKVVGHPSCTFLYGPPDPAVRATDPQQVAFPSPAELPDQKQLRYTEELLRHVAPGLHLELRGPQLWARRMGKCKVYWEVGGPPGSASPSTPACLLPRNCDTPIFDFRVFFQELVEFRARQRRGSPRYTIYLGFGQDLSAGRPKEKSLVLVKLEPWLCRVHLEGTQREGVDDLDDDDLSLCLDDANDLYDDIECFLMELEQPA
`GACGGTTTCCTTTCCCTGAGGTGCTAG`: “fitted relative affinity” 3.85 z-score.
Under “fitted relative affinity”, `TCAGTTTTGCTAAGTCAAACTGTGCTA` is recorded as 1.34 z-score.
Under “fitted relative affinity”, `TTAGGACTGGGACTGTGTTAGTGCTAG` is recorded as -0.422 z-score.
`TTAGATTTTAGTCTCGATTAGTGCTAG`: “fitted relative affinity” 0.41 z-score.
`TTAGATCTCCTACTGCTTTAGTGCTAG`: “fitted relative affinity” 0.855 z-score.
For `GACGGTAACGGGTTTCGGGACGTGCTA`, “fitted relative affinity” read 0.827 z-score.
For `TTACGACTGCTACTGCTTTAGTGCTAG`, “fitted relative affinity” read 0.66 z-score.
Under “fitted relative affinity”, `TTAGATTTCGGGGATCGATTAGTGCTA` is recorded as 0.941 z-score.
`GACGCTTTCGGTTCCGGGACGTGCTAG` — result for “fitted relative affinity”: 12.3 z-score.
Under “fitted relative affinity”, `TTAGGACTGGGGTTTCAGTTAGTGCTA` is recorded as -0.0364 z-score.
For `GGATCTTGCAGATGTCGCTGGGTGCTA`, “fitted relative affinity” read 0.0604 z-score.
`TCAACTTGTCTTTTCATACTGTGCTAG`: “fitted relative affinity” 1.56 z-score.
`TCATTTTTAGCTTGCAAACTGTGCTAG` — result for “fitted relative affinity”: 1.13 z-score.
`TCACCTATCAGTTTAATACTGTGCTAG`: “fitted relative affinity” 1.45 z-score.
`TCAGTCATCCATCTGAAACTGTGCTAG` — result for “fitted relative affinity”: 0.729 z-score.
Under “fitted relative affinity”, `TTAGATTTCGGTATCGGTTAGTGCTAG` is recorded as 4.25 z-score.

Block 4
Target: CCND2, cyclin fold, Cln2 fusion (human)
Technique: yeast growth competition, sequencing
Matrix: yeast
Notes: strong parent motif
Reference: not given
Reading: higher = stronger binding
Starting sequence: PKN2 docking peptide (human); VSAVRKLDFSDTM
Under “normalised enrichment score”, `V4T` is recorded as 1.32.
Under “normalised enrichment score”, `K6Q` is recorded as 1.92.
For `F9Q`, “normalised enrichment score” read -0.153.
`S2Q`: “normalised enrichment score” 1.81.
`L7P` — result for “normalised enrichment score”: 0.601.
For `S2P`, “normalised enrichment score” read 1.45.
Under “normalised enrichment score”, `T12H` is recorded as 3.56.
`T12Q` — result for “normalised enrichment score”: 3.37.
For `K6W`, “normalised enrichment score” read 1.42.
Under “normalised enrichment score”, `L7G` is recorded as -0.196.
`L7S` — result for “normalised enrichment score”: 0.527.
`S10Q` — result for “normalised enrichment score”: 2.92.
`D11H`: “normalised enrichment score” 2.45.
For `D8F`, “normalised enrichment score” read 0.274.
Under “normalised enrichment score”, `S10P` is recorded as 1.95.
Under “normalised enrichment score”, `S10I` is recorded as 1.85.
`L7T` — result for “normalised enrichment score”: 0.123.
`S10K`: “normalised enrichment score” 2.46.
`K6L`: “normalised enrichment score” 1.71.
Under “normalised enrichment score”, `V4L` is recorded as 0.614.
`D11W` — result for “normalised enrichment score”: 2.15.
`D8M` — result for “normalised enrichment score”: 0.342.
Under “normalised enrichment score”, `K6E` is recorded as 1.35.
Under “normalised enrichment score”, `A3N` is recorded as 0.414.
For `S10V`, “normalised enrichment score” read 2.03.

Block 5
Target: Sal-like protein 4, full length isoform A (SALL4, Homo sapiens, UniProt Q9UJQ4, residues 1-1053)
Chain of UniProt Q9UJQ4 (whole entry, looked up): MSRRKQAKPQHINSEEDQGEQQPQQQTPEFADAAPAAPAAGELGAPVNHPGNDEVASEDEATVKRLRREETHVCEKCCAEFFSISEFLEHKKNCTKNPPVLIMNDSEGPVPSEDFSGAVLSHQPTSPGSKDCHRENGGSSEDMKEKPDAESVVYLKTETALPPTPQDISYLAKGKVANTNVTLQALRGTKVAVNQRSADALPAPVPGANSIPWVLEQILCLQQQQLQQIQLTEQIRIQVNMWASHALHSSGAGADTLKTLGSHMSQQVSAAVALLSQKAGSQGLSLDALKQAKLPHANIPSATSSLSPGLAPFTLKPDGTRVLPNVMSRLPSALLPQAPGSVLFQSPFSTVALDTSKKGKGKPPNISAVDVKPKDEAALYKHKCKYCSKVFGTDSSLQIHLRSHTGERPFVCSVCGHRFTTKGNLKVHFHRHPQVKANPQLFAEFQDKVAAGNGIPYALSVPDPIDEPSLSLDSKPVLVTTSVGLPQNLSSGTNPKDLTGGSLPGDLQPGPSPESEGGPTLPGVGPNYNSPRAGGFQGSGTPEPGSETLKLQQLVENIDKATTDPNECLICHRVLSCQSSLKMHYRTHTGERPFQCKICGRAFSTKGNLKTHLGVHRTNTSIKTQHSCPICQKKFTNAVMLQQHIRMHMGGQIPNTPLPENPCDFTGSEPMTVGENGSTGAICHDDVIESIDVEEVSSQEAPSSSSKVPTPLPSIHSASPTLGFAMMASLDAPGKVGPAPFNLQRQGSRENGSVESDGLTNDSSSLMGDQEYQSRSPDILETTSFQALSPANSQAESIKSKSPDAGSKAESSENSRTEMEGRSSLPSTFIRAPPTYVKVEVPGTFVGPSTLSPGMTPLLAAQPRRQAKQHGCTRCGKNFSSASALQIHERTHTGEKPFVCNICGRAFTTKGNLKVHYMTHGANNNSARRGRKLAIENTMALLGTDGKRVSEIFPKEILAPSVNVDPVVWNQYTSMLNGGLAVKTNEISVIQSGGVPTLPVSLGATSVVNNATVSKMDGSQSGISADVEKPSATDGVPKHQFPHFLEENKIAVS
Technique: universal PBM
Molecule type: double-stranded DNA, one strand shown
Matrix: in vitro
Tested at: 600 nM
Notes: 8-mer, flanks averaged, mean of replicates
Reading: higher = stronger binding
`GTTGAGCA` has an E-score of -0.106.
`CAATAACC` gave an E-score of 0.266.
With `ACTCACGA` the E-score was -0.073.
`CTAATTCC` has an E-score of 0.131.
`GGGTGACC` has an E-score of -0.343.
`ACAACATA` gave an E-score of 0.244.
With `AGTCTTAA` the E-score was 0.0965.
`CAAGCCAA` gave an E-score of 0.0331.
`AAACCGCC` has an E-score of -0.125.
For `AATGGTGG`, the E-score was -0.0638.
`TGGTGTAA` gave an E-score of 0.0173.
With `ACGTCGGC` the E-score was -0.277.
The E-score of `CCGTACCC` is reported as -0.272.
The E-score of `ACGCCCCT` is reported as -0.289.
The E-score of `GACGAGAC` is reported as -0.14.
With `CGGGCGGC` the E-score was -0.392.
For `CAGTCCAC`, the E-score was -0.0839.
`GATGTTCC` has an E-score of -0.156.
For `CTTACTCA`, the E-score was 0.113.
`AGACCGCT` has an E-score of -0.193.
`GGGTTAGA` has an E-score of -0.196.
`GATACTAA` has an E-score of 0.19.
`GAGTGAAA` gave an E-score of 0.274.
For `CCGGGTCC`, the E-score was -0.443.
`TCATGCAA` gave an E-score of 0.168.

Excerpt of the above (block 1):
`ACGCGGAT` has an E-score of 0.273.
With `ACCCCCGG` the E-score was 0.258.
The E-score of `GGAAACAC` is reported as 0.391.
`CGTTTCCA` has an E-score of 0.256.
`ATGTTCCG` gave an E-score of 0.322.
For `ACTATCCG`, the E-score was 0.302.
